Published values pooled from the literature.
Compare with care: the assays were run in different laboratories. ± marks the error that the study gave.
Cell line: A-431

With `C#Cc1cccc(Nc2ncnc3cc(OC)c(OCCCN4CCOCC4)cc23)c1` the IC50 was less than 1 µM (cell growth or viability, SRB; 72 h).
`CCCC(C)NC(=O)C(Nc1ccccc1C(=O)c1ccccc1)c1cn(C)c2ccccc12` (stereo not shown) has a GI50 of 11 µM (cell growth or viability, MTT; 72 h).
For `O=C(/C=C/c1ccc2c(c1)C(=O)N(CCCc1ccccc1)CC2)NO`, the IC50 was 2.31 ± 0.41 µM (cell growth, SRB; 72 h).
The EC50 of `CC(=O)N[C@@H](CC[S+](C)[Ru-4]123([S+](C)CC[C@H](NC(C)=O)C(=O)O)[n+]4ccc5ccccc5c4Nc4cccc([n+]41)-c1cccc([n+]12)Nc1c2ccccc2cc[n+]13)C(=O)[O-].F[P-](F)(F)(F)(F)F` (stereo partly shown) is reported as roughly 35 µM (cytotoxicity; dark, 6 and 24 h).
`CCCCCCOc1c(O)cc(C(=O)O[C@@H]2Cc3c(O)cc(O)cc3O[C@@H]2c2cc(O)c(O)c(O)c2)cc1O` gave an IC50 of 105.9 ± 0.03 µM (cell growth, inhibitor, CCK-8; 24 h).
The IC50 of `CCOC(=O)/C(=N\Nc1ccc(S(=O)(=O)Nc2ncccn2)cc1)C(=O)c1ccccc1` is reported as 13.9 µM (cell growth or viability, MTT; 48 h).
`COCC1CN(C2CCN(c3cc(OC)c(Nc4ncc(Br)c(Nc5ccc6c(c5P(C)(C)=O)OCCO6)n4)cc3C)CC2)C1` gave an IC50 of 0.149 µM (cell growth or viability, ATP luminescence; 72 h).
With `CC(C)c1cccc(C(C)C)c1-n1c(Cl)c(Cl)n(-c2c(C(C)C)cccc2C(C)C)c1=[Se].[Cl][Au]` the IC50 was 0.4 µM (cell growth or viability, MTT; 72 h).
With `CCCCCCCCCCCCOc1c(O)cc(C(=O)O[C@@H]2Cc3c(O)cc(O)cc3O[C@@H]2c2cc(O)c(O)c(O)c2)cc1O` the IC50 was 50.5 µM (cell growth or viability, CCK-8; 24 h).
The IC50 of `COc1cc(/C=C/C(=O)NCCCCCCNC2=C3C[C@@H](C)C[C@H](OC)[C@H](O)[C@@H](C)/C=C(\C)[C@H](OC(N)=O)[C@@H](OC)/C=C\C=C(/C)C(=O)NC(=CC2=O)C3=O)ccc1O` is reported as 0.685 µM (cell growth or viability, MTT; 72 h).
Under “total protein level”, `CC(=O)N[C@H](C(=O)N[C@@H](CCCNC(=N)N)C(=O)N[C@@H](CCCCN)C(=O)N[C@@H](CCCNC(=N)N)C(=O)N[C@]1(C)CCCCCCC=CCCC[C@@](C)(C(=O)N[C@@H](CCCNC(=N)N)C(=O)N[C@@H](CCC(=O)O)C(=O)N[C@@H](CC(C)C)C(=O)N[C@H](C(=O)N[C@@H](CCC(=O)O)C(N)=O)C(C)C)NC(=O)[C@H](CCC(N)=O)NC(=O)[C@H](CC(C)C)NC(=O)[C@H](CC(C)C)NC(=O)[C@H](CCCNC(=N)N)NC(=O)[C@H](CCCNC(=N)N)NC(=O)[C@H](CC(C)C)NC1=O)C(C)C` is recorded as “no effect” (immunoblot, refers to: EGFR, Akt, Erk; concentration not given, 2 h, with: 10 ng/mL EGF).
With `CC(C)c1cccc(C(C)C)c1N1CCN(c2c(C(C)C)cccc2C(C)C)C1=[Se].[Cl][Ag]` the IC50 was 0.6 µM (cell growth or viability, MTT; 72 h).
The IC50 of `CCCCCCCCCCCCCCOc1c(O)cc(C(=O)O[C@@H]2Cc3c(O)cc(O)cc3O[C@@H]2c2cc(O)c(O)c(O)c2)cc1O` is reported as 30.5 µM (cell growth or viability, CCK-8; 24 h).
`CC(C)c1cccc(C(C)C)c1-n1ccn(-c2c(C(C)C)cccc2C(C)C)c1=[Se].[Cl][Au]` gave an IC50 of 9.2 µM (cell growth or viability, MTT; 72 h).
`CCCCCCCCOc1c(O)cc(C(=O)O[C@@H]2Cc3c(O)cc(O)cc3O[C@@H]2c2cc(O)c(O)c(O)c2)cc1O` has an IC50 of 109 µM (cell growth or viability, CCK-8; 24 h).
For `CC(=O)N[C@H](C(=O)N[C@@H](CCCNC(=N)N)C(=O)N[C@@H](CCCCN)C(=O)N[C@@H](CCCNC(=N)N)C(=O)N[C@H](C(=O)N[C@@H](CC(C)C)C(=O)N[C@@H](CCCNC(=N)N)C(=O)N[C@]1(C)CCCCCCC=CCCC[C@@](C)(C(=O)N[C@H](C(=O)N[C@@H](CCC(=O)O)C(N)=O)C(C)C)NC(=O)[C@H](CCC(=O)O)NC(=O)[C@H](CCCNC(=N)N)NC(=O)[C@H](CCC(=O)O)NC(=O)[C@H](CCC(N)=O)NC(=O)[C@H](CC(C)C)NC(=O)[C@H](CC(C)C)NC1=O)[C@@H](C)O)C(C)C`, viability read “inactive” (concentration not given, 18 h).

Repeated from above:
For `O=C(/C=C/c1ccc2c(c1)C(=O)N(CCCc1ccccc1)CC2)NO`, the IC50 was 2.31 ± 0.41 µM (cell growth, SRB; 72 h).
